Experimental data of several laboratories.
Parts stem from different laboratories: compare values within a part only. Positions count from the first letter of the parent shown.

Study 1 — method: protein binding microarray; form: double-stranded DNA, one strand shown; sample: in vitro; tested at: not given; baseline: not given; reading: higher = stronger binding; measurement: E-score
Target: Histone acetyltransferase KAT6A, winged helix 1, GST fusion (KAT6A, Homo sapiens, UniProt Q92794, residues 1-85)
Setting: 8-mer, flanks averaged, mean of 2 arrays, mostly near background
Residues (chain): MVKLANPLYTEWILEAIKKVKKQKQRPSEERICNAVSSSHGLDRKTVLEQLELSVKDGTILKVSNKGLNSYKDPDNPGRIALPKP
Sequence = CCGTCTGA; value = 0.249
Sequence = CGATGGCA; value = -0.0254
Sequence = ACAGCCCT; value = -0.0843
Sequence = AATGCCGG; value = 0.344
Sequence = AGCACGCT; value = -0.0278

Study 2 — method: RNA Bind-n-Seq; form: RNA; sample: in vitro; tested at: 20 nM; setting: 6-mer, flanks averaged, single round; with: 150 mM KCl; baseline: input library; reading: higher = stronger binding; measurement: 6-mer enrichment (R)
Target: TAR DNA-binding protein 43, full length, His tag (TARDBP, Homo sapiens, UniProt Q13148, residues 1-414)
Sequence = AACUCU; value = 0.6
Sequence = AAGGGU; value = 1.91
Sequence = AGCGAG; value = 1.6
Sequence = CGAGUU; value = 0.726

Study 3 — target: CCND1, cyclin fold, Cln2 fusion (human); method: yeast growth competition, sequencing; sample: yeast; setting: weak parent motif; baseline: not given; reading: higher = stronger binding; measurement: normalised enrichment score
Starting sequence: WEE1 docking peptide (human); HKTFRKLRLFDTP
Change = F10C; value = -0.196
Change = K6W; value = 0.658
Change = F4D; value = 0.0852

Other studies, line by line
Substance = PhoQ, residues 284 288 289 292 302 303 GASLAW; target = PhoP, residues 12 14 15 18 19 NQAHL (Escherichia coli, UniProt P23836); assay = Sort-seq, measured: YFP reporter; test system = E. coli; setting = PhoQ-PhoP variant library, with: 10 µM Mg2+; scale = baseline: high Mg2+ state, higher = stronger signaling; measurement = fold induction; value = 0.545

A few entries again (study 3):
Change = F4D; value = 0.0852
